Assay results of several laboratories.
Each numbered part is a random draw from the data of one study; scales do not carry over between parts.

Study 1 — method: universal PBM; molecule type: double-stranded DNA, one strand shown; matrix: in vitro; concentration: 600 nM; direction: higher = stronger binding; quantity: E-score
Target: Sal-like protein 4, full length isoform A (SALL4, Homo sapiens, UniProt Q9UJQ4, residues 1-1053)
Sequence of UniProt Q9UJQ4 (whole entry, looked up): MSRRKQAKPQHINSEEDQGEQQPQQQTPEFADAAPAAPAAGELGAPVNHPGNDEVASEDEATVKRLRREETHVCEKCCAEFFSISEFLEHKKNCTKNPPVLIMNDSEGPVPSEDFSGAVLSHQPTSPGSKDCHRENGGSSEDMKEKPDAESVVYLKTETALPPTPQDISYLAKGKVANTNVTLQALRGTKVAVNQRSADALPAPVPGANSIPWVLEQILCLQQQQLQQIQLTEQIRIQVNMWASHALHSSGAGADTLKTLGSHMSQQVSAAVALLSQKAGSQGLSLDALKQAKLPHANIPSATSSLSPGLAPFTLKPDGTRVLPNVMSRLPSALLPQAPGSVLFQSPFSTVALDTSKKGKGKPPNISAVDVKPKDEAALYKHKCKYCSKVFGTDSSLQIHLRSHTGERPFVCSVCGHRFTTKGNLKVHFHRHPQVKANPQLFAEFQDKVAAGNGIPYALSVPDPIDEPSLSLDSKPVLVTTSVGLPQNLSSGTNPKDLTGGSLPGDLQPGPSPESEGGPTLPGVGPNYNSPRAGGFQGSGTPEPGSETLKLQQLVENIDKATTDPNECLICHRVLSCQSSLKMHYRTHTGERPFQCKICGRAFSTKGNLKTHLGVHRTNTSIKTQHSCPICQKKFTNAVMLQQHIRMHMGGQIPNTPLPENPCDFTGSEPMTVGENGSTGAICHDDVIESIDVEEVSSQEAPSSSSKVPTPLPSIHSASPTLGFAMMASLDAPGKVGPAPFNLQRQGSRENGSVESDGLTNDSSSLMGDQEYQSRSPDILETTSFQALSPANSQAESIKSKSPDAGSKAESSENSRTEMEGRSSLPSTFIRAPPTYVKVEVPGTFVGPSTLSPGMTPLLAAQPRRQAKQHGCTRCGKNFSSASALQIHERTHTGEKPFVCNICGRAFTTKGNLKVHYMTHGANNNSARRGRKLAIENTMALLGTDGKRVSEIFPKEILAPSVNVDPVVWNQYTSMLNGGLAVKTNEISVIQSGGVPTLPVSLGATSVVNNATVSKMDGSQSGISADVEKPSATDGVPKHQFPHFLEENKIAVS
Setting: 8-mer, flanks averaged, mean of replicates
ACCGCAGC: -0.312
GAAACCCC: -0.292
ATGGGGAA: 0.0313
CACAGAAC: 0.0114
CCTACTCA: -0.0687

Study 2 — method: DNA-protein interaction ELISA; molecule type: double-stranded DNA, one strand shown; matrix: in vitro, bacterial lysate; concentration: not given; setting: whole dsDNA probe, crude lysate protein; baseline: highest signal in screen; direction: higher = stronger binding; quantity: relative absorbance
Target: Probable WRKY transcription factor 33, C-terminal DNA-binding domain (WRKY33, Arabidopsis thaliana, UniProt Q8S8P5, residues 346-449)
Target sequence (chain): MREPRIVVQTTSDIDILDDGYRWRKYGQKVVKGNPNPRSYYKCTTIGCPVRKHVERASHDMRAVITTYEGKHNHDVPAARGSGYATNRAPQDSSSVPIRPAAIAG
AAAAAATGCCATTGTACCTGTGTTCGAAAA: 23.5 % of maximum
AAAAAACATAACCGCAAAATCCCTACAAAA: 31.4 % of maximum
AAAAAATCTGTTCTCGTTTCCCCTTCAAAA: 32.1 % of maximum
AAAAAACTAACCGTCGCAGGCGTGTGAAAA: 55.3 % of maximum
AAAAAAAAAAAAAAAAAAAAAAAAAAAAAA: 36.7 % of maximum

Study 3 — method: protein-binding microarray; molecule type: double-stranded DNA, one strand shown; matrix: in vitro; concentration: 2540 nM top; setting: 60-bp whole probe; with: salmon DNA 0.4 mg/ml; baseline: random background probes; direction: higher = stronger binding; quantity: fitted relative affinity
Target: Interferon regulatory factor 3, full length, phosphomimetic (IRF3, Homo sapiens, UniProt Q14653, residues 1-427, S386D/S396D/S398D/S402D/T404D/S405D)
Construct (chain): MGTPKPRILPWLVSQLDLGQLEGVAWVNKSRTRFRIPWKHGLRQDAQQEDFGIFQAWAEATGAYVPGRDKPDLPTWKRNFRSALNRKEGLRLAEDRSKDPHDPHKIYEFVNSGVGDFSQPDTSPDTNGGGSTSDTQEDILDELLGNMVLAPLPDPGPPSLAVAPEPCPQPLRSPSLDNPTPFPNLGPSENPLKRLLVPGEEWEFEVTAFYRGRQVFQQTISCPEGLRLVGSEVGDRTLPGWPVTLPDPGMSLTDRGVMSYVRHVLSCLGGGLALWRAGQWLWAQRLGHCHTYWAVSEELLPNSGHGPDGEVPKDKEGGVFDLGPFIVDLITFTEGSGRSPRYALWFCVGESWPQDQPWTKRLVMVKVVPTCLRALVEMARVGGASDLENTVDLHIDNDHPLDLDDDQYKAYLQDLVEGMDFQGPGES
GCCTAGCACTTAGGTTTCGGGTTTCGCTTAGTGCTAGTCTTGATTCGCTTGACGCTGCTG: 5.3 z-score
GCCTAGCACTTTGAGCTCTGTCTGGGATGGTGCTAGGTCTTGATTCGCTTGACGCTGCTG: -0.722 z-score
GCCTAGCACTTAGGTATCGGGACTGGTTTAGTGCTAGTCTTGATTCGCTTGACGCTGCTG: 1.35 z-score
GCCTAGCACATGAGTCTCAAAATTAGAGAGTGCTAGGTCTTGATTCGCTTGACGCTGCTG: -0.197 z-score

Further values, each from its own experiment
PhoQ, residues 284 288 289 292 302 303 GANMMA — fold induction (PhoP, residues 12 14 15 18 19 GQAIL (Escherichia coli, UniProt P23836); Sort-seq, refers to: YFP reporter; E. coli; PhoQ-PhoP variant library, with: 10 µM Mg2+; baseline: high Mg2+ state, higher = stronger signaling): 1.59

A few entries again (study 2):
AAAAAACATAACCGCAAAATCCCTACAAAA: 31.4 % of maximum
AAAAAATCTGTTCTCGTTTCCCCTTCAAAA: 32.1 % of maximum
